Published values of several laboratories.
Each numbered part is a random draw from the data of one study; scales do not carry over between parts. Positions count from the first letter of the parent shown.

Series 1 — technique: DHFR PCA, deep sequencing; medium: yeast; with: (+)-ABA 17 µM; relative to: wild-type fitted maximum; direction: higher = stronger binding
Target: ABI1, truncated, D143A, DHFR fusion (Arabidopsis thaliana)
Setting: methotrexate growth selection, single substitutions
Parent: PYL1, truncated, DHFR fusion (Arabidopsis thaliana); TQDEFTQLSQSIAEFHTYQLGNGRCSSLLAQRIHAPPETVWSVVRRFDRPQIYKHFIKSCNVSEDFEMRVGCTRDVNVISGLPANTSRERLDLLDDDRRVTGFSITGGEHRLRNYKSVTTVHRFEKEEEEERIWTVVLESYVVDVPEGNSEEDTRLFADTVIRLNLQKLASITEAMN; partner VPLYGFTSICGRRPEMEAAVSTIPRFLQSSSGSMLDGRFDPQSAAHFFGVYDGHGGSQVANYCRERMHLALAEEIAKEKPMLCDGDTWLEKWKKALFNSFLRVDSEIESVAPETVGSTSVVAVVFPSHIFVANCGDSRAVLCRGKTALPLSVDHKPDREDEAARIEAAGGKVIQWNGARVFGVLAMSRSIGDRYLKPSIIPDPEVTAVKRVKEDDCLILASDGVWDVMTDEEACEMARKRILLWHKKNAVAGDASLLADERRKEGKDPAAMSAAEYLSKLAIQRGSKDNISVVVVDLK
For `Q167A`, “relative binding score” read 88.3%.
Under “relative binding score”, `S171D` is recorded as 90.3%.
`T173H` — result for “relative binding score”: 21.1%.
For `A175Y`, “relative binding score” read 69.6%.
Under “relative binding score”, `S140F` is recorded as 2.9%.
`A158C` — result for “relative binding score”: 104%.
`T6V` — result for “relative binding score”: 85.4%.
`E89Y`: “relative binding score” -2.64%.
Under “relative binding score”, `K168F` is recorded as 21%.
For `T101L`, “relative binding score” read 87.8%.
Under “relative binding score”, `I57W` is recorded as -4.81%.
`L82A` — result for “relative binding score”: 17.3%.
`L112W` — result for “relative binding score”: 4.31%.
`S9G`: “relative binding score” 80%.
`P50F` — result for “relative binding score”: -9.67%.

Series 2 — target: CCND3, cyclin fold, Cln2 fusion (human); technique: yeast growth competition, sequencing; medium: yeast; setting: weak parent motif; relative to: not given; direction: higher = stronger binding
Parent: CDC6 docking peptide (human); TLKGRRLVFDNQL; partner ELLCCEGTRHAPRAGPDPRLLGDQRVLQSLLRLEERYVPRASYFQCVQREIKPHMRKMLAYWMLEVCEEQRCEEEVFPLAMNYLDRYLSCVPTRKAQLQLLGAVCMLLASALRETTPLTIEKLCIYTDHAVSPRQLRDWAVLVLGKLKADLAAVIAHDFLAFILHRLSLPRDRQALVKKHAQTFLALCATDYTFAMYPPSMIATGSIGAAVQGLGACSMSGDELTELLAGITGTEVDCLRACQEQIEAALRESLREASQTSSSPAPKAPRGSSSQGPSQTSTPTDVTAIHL
Under “normalised enrichment score”, `L2Y` is recorded as 0.0532.
For `V8K`, “normalised enrichment score” read 0.109.
`L13Q` — result for “normalised enrichment score”: 0.142.
`G4T` — result for “normalised enrichment score”: -0.000183.
`F9N` — result for “normalised enrichment score”: 0.0918.
`Q12N`: “normalised enrichment score” 0.0984.
`D10K` — result for “normalised enrichment score”: 0.0785.
`R5F`: “normalised enrichment score” 0.0997.
`Q12S` — result for “normalised enrichment score”: 0.0833.
For `N11P`, “normalised enrichment score” read 0.134.
`R5N`: “normalised enrichment score” 0.0167.
For `K3Q`, “normalised enrichment score” read 0.139.
Under “normalised enrichment score”, `R6Y` is recorded as 0.125.
`F9D`: “normalised enrichment score” 0.11.
For `L7S`, “normalised enrichment score” read 0.0789.
`R6I`: “normalised enrichment score” 0.112.
`D10R`: “normalised enrichment score” 0.112.
`L2V`: “normalised enrichment score” 0.117.
`R5M` — result for “normalised enrichment score”: 0.147.
`R5V` — result for “normalised enrichment score”: 0.177.
`N11C` — result for “normalised enrichment score”: 0.213.
For `R5G`, “normalised enrichment score” read 0.232.
Under “normalised enrichment score”, `D10C` is recorded as 0.163.
Under “normalised enrichment score”, `T1S` is recorded as 0.0977.

Series 3 — technique: RNA Bind-n-Seq; form: RNA; medium: in vitro; tested at: 1 µM; setting: whole 134-nt RNA, ends assumed; with: 150 mM KCl; relative to: input library; direction: higher = stronger binding
Target: Ras GTPase-activating protein-binding protein 1, C-terminal RGG region (G3BP1, Homo sapiens, UniProt Q13283)
Chain of UniProt Q13283 (whole entry, looked up): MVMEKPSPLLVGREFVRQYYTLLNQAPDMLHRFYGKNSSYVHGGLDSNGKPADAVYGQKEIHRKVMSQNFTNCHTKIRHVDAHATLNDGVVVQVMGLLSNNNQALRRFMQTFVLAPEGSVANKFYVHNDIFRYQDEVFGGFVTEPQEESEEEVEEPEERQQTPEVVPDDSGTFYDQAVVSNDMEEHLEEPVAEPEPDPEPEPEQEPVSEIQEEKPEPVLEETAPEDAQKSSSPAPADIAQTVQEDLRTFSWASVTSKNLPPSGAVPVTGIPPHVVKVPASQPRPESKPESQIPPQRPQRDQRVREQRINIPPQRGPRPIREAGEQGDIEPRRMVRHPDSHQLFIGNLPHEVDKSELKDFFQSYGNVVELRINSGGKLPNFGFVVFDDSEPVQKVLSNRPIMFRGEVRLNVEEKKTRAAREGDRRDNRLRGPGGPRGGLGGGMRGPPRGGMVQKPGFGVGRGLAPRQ
`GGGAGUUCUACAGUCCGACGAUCCUCAAGUCCUGUGCUACACAUCGUAUGUACCGAAUCGGUGGAAAAAGGUUUGGAAAGUAUUAUGUUACGCCGUUCGGAUCUGCACUUCCAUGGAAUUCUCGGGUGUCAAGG` has a log2 enrichment of -1.18.
`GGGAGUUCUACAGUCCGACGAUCCACAGACAACACGCACCCACACAGACACGGAGGGAAGGGGUUGGGAUGGGGACAGGGUGCACAGCAGGGCGGGGUAGGACCCCAGCCCCUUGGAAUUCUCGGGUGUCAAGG` gave a log2 enrichment of -0.39.
With `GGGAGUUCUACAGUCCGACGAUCUGGGAGGUGGAUUUUGUUUAUUUUUUUAGCUUAUUUCCAGGGGUGGGAAUUUUUUUUUAAUAUGUGUCAUGAAUAAAGUUGUUUUUGAAAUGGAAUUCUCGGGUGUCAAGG` the log2 enrichment was 3.52.
For `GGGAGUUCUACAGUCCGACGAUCAGUCCUGUGCUACACAUCGUAUGUACCGAAUCGGGAAAAAAAGGGUUUGGGUUUGGGAAAGUAUUAUGUUACGCCGUUCGGAUCUGCACUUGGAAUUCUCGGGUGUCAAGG`, the log2 enrichment was 0.83.
With `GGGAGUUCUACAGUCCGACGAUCUCAAGUCCUGUGCUACACAUCGUAUGUACCGAAUCGGGAGGGUUUUUGGGAGGGAAAGUAUUAUGUUACGCCGUUCGGAUCUGCACUUCCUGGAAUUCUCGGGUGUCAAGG` the log2 enrichment was 1.27.
`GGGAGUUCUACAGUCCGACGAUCUCAAGUCCUGUGCUACACAUCGUAUGUACCGAAUCGGGGCCGGCCGGGGCCGGGAAAGUAUUAUGUUACGCCGUUCGGAUCUGCACUUCCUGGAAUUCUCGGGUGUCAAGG` has a log2 enrichment of -1.54.
The log2 enrichment of `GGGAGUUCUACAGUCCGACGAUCUAACUUUAGAGGAGGAUCUGAUGGAUAUGGCAGUGGACGUGGAUUUGGGGAUGGCUAUAAUGGGUAUGGAUGAGGACCUGGAGGUGGCAAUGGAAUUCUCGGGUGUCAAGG` is reported as -0.587.
`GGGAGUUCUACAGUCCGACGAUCUUAAUAGAUUGAACUUCAAAAAAAAAUUCUUUCUUAAUUUCUGGAUUAAAAAGUAUGCCUGUGUCUUCUAGACCUUUACCAGAAGAUGAUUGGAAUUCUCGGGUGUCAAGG` has a log2 enrichment of -1.82.
With `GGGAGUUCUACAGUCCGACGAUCUCCUGUGCUACACAUCGUAUGUACCGAAUCGGGGUGGGGAAAAAAAGGGGUUUUUGGGGAAAGUAUUAUGUUACGCCGUUCGGAUCUGCAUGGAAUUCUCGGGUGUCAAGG` the log2 enrichment was 1.89.
`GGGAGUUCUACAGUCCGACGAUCAGUCCUGUGCUACACAUCGUAUGUACCGAAUCGGGUUUUUGGGAAAGGGAAAAAGGGAAAGUAUUAUGUUACGCCGUUCGGAUCUGCACUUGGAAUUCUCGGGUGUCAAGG` gave a log2 enrichment of 0.279.
`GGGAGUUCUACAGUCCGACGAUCCAAGUCCUGUGCUACACAUCGUAUGUACCGAAUCGGAAAGGAAAGGAAAAAAAGGAAAGUAUUAUGUUACGCCGUUCGGAUCUGCACUUCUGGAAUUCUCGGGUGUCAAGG` has a log2 enrichment of -1.71.
The log2 enrichment of `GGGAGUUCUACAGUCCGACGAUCUCAAGUCCUGUGCUACACAUCGUAUGUACCGAAUCGGAAGGGGAAGGGGAAGGGGAAAGUAUUAUGUUACGCCGUUCGGAUCUGCACUUCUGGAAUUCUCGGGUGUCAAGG` is reported as 1.22.
`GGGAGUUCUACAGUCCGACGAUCAGUCCUGUGCUACACAUCGUAUGUACCGAAUCAAAUUUUUUUAAAUUUAAACCCAAAAAAGUAUUAUGUUACGCCGUUCGGAUCUGCACUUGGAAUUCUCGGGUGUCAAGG` has a log2 enrichment of -1.48.
With `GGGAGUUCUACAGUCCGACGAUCUUUGCUUGCAGUAUCUGUUUCUCUUCCUAGGCUCAAGUUGGUGACCCAAGCCUAUUGUAAACAAGUGAUUAUCUCAAAGGGAGAUGCCAAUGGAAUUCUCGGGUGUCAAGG` the log2 enrichment was -0.861.

Series 4 — technique: protein-binding microarray; form: double-stranded DNA, one strand shown; medium: in vitro; tested at: 940 nM top; setting: 60-bp whole probe; with: salmon DNA 0.4 mg/ml; relative to: random background probes; direction: higher = stronger binding; constant ends, left off below: GCCTAGCAC … GTCTTGATTCGCTTGACGCTGCTG
Target: Interferon regulatory factor 5, full length, phosphomimetic (IRF5, Homo sapiens, UniProt Q13568-2, residues 1-514, S451D/S453D/S456D/S462D)
`GACGATATCAGATTGGAGACGTGCTAG`: “fitted relative affinity” -0.276 z-score.
`TTAGGACTTGGGTTTCGGTTAGTGCTA`: “fitted relative affinity” 5.84 z-score.
For `TTAGGTATCGGGTATCGATTAGTGCTA`, “fitted relative affinity” read 6.93 z-score.
For `GACGGTAACGGTTTCGGGACGTGCTAG`, “fitted relative affinity” read 3.42 z-score.
`TCATGGTCCTCTCTCTAACTGTGCTAG` — result for “fitted relative affinity”: 0.174 z-score.
`TTCGGACTGGACTATCGGTTAGTGCTA` — result for “fitted relative affinity”: 0.027 z-score.
Under “fitted relative affinity”, `AAAGTCTTCACTCTGCTGAAGTGCTAG` is recorded as 0.137 z-score.
`TTAGAACTGAGTTTCGATTAGTGCTAG`: “fitted relative affinity” 7.34 z-score.
`GACGGTTTCGGTTTCGGGACGTGCTAG` — result for “fitted relative affinity”: 14.8 z-score.
Under “fitted relative affinity”, `TTAGGTTTCCTGCTGCTTTAGTGCTAG` is recorded as 0.702 z-score.
For `TTAGAGTTCAGTTTCGATTAGTGCTAG`, “fitted relative affinity” read 8.78 z-score.
Under “fitted relative affinity”, `TTAGGTCTCGGTTGCGGTTAGTGCTAG` is recorded as 4.98 z-score.
`TTAGTTTTCGGACTGGGTTAGTGCTAG` — result for “fitted relative affinity”: 1.84 z-score.
`GACGGTTGCGGTCTCGGGACGTGCTAG`: “fitted relative affinity” 1.68 z-score.
`TTAGGACTGGGTCTCGATTAGTGCTAG` — result for “fitted relative affinity”: 0.954 z-score.
Under “fitted relative affinity”, `GACTGACTGGGACTGGGGACGTGCTAG` is recorded as -0.479 z-score.
For `TTAGATTTCAGTTCCGATTAGTGCTAG`, “fitted relative affinity” read 2.09 z-score.
`CCTTTTTTTTTTTTTCTGATGTGCTAG` — result for “fitted relative affinity”: 1.54 z-score.
For `GACGGTATCGGGACTGGAGACGTGCTA`, “fitted relative affinity” read 2.59 z-score.
For `TTAGATTGCGGGTATCGATTAGTGCTA`, “fitted relative affinity” read 3.22 z-score.
`TAAATTTTCACGGTGGGTTCGTGCTAG`: “fitted relative affinity” 0.0975 z-score.
`GACGATATCAGTATCAAGACGTGCTAG`: “fitted relative affinity” 0.118 z-score.
`TTAGGTTTCGGGACTGGGTTTGTGCTA` — result for “fitted relative affinity”: 8.32 z-score.
For `GTTGCTCTCTCACCACCTTCGTGCTAG`, “fitted relative affinity” read 1.68 z-score.
Under “fitted relative affinity”, `GACCGTTTCGGTATCGGGACGTGCTAG` is recorded as 7.96 z-score.

Series 5 — technique: protein binding microarray; form: double-stranded DNA, one strand shown; medium: in vitro; tested at: not given; relative to: not given; direction: higher = stronger binding
Target: Histone acetyltransferase KAT6A, both winged helices, GST fusion (KAT6A, Homo sapiens, UniProt Q92794, residues 1-181)
Setting: 8-mer, flanks averaged, mean of 2 arrays, mostly near background
Construct (chain): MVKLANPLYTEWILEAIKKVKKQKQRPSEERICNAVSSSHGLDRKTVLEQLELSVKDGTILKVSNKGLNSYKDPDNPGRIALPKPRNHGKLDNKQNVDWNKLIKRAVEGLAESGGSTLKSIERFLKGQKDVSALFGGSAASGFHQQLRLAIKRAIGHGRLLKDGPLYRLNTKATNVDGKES
For `TCCGTTCA`, the E-score was 0.164.
`AGAATACA` gave an E-score of 0.00299.
For `CGCTAAGC`, the E-score was 0.299.
The E-score of `AAGCCAAG` is reported as -0.194.
With `ATGCCATG` the E-score was -0.0318.
The E-score of `TACCATGA` is reported as -0.104.
For `ATCTACCG`, the E-score was 0.165.
`GGCCGAAA` has an E-score of 0.158.
With `AAGACGTG` the E-score was -0.043.
`AACTTCTC` gave an E-score of -0.081.
For `ACGATCAC`, the E-score was -0.00865.
For `GGGGGACA`, the E-score was -0.212.
`GACTGTTA` has an E-score of -0.021.
The E-score of `CAGCGAGA` is reported as -0.0175.
`ACTCATAA` has an E-score of -0.0555.
`AACCTCAA` has an E-score of -0.0815.
For `GCGTAGGA`, the E-score was 0.116.
`ACGCTACA` has an E-score of -0.0191.
